Assay results gathered from unrelated publications.
Values joined by “and” are separate records of one study, mostly repeats; a detail may differ. Numbers after ± are the reported error.
T1: ATRX ADD domain 167-289 K251R/F284Y (Homo sapiens); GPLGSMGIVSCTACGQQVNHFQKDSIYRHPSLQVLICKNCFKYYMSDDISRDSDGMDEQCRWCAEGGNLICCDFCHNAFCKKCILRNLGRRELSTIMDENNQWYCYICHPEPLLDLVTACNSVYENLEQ
B1: PPARG AF-1 1-136 (Homo sapiens, UniProt P37231-1); pT75, pS112; chain MGETLGDSPIDPESDSFTDTLSANISQEMTMVDTEMPFWPTNFGISSVDLSVMEDHSHSFDIKPFTTVDFSSISTPHYEDIPFTRTDPVVADYKYDLKLQEYQSAIKVEPASPPYYSEKTQLYNKPHEEPSNSLMA
B2: SIL1 20-421 (Saccharomyces cerevisiae, UniProt Q08199); chain TILHSSIHSVPSGGEIISAEDLKELEISGNSICVDNRCYPKIFEPRHDWQPILPGQELPGGLDIRINMDTGLKEAKLNDEKNVGDNGSHELIVSSEDMKASPGDYEFSSDFKEMRNIIDSNPTLSSQDIARLEDSFDRIMEFAHDYKHGYKIITHEFALLANLSLNENLPLTLRELSTRVITSCLRNNPPVVEFINESFPNFKSKIMAALSNLNDSNHRSSNILIKRYLSILNELPVTSEDLPIYSTVVLQNVYERNNKDKQLQIKVLELISKILKADMYENDDTNLILFKRNAENWSSNLQEWANEFQEMVQNKSIDELHTRTFFDTLYNLKKIFKSDITINKGFLNWLAQQCKARQSNLDNGLQERDTEQDSFDKKLIDSRHLIFGNPMAHRIKNFRDEL
B3: Cacna1c 1647-1777 (Mus musculus, UniProt Q01815); sequence looked up; chain NALSLQAGLRTLHDIGPEIRRAISGDLTAEEELDKAMKEAVSAASEDDIFRRAGGLFGNHVTYYQSDSRGNFPQTFATQRPLHINKTGNNQADTESPSHEKLVDSTFTPSSYSSTGSNANINNANNTALGR
B4: GAB1 331-530 (Homo sapiens, UniProt Q13480); sequence looked up; chain TSKLDTIPDIPPPRPPKPHPAHDRSPVETCSIPRTASDTDSSYCIPTAGMSPSRSNTISTVDLNKLRKDASSQDCYDIPRAFPSDRSSSLEGFHNHFKVKNVLTVGSVSSEELDENYVPMNPNSPPRQHSSSFTEPIQEANYVPMTPGTFDFSSFGMQVPPPAHMGFRSSPKTPPRRPVPVADCEPPPVDRNLKPDRKVK
B5: PLXND1 RBD 1553-1678 (Homo sapiens, UniProt Q9Y4D7); sequence looked up; chain AKPRNLNVSFQGCGMDSLSVRAMDTDTLTQVKEKILEAFCKNVPYSQWPRAEDVDLEWFASSTQSYILRDLDDTSVVEDGRKKLNTLAHYKIPEGASLAMSLIDKKDNTLGRVKDLDTEKYFHLVL
Sequence of UniProt P15692 (whole entry, looked up): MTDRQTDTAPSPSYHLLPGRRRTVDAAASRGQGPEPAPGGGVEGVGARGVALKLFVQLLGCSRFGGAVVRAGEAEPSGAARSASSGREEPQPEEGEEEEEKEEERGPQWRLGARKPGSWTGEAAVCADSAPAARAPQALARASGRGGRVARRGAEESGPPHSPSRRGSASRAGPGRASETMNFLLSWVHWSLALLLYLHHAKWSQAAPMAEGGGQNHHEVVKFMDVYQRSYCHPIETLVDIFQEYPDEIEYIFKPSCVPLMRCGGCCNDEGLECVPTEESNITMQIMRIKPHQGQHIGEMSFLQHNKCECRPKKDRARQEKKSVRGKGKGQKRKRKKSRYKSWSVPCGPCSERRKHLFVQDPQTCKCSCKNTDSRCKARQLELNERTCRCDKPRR
Sequence of UniProt P17948 (whole entry, looked up): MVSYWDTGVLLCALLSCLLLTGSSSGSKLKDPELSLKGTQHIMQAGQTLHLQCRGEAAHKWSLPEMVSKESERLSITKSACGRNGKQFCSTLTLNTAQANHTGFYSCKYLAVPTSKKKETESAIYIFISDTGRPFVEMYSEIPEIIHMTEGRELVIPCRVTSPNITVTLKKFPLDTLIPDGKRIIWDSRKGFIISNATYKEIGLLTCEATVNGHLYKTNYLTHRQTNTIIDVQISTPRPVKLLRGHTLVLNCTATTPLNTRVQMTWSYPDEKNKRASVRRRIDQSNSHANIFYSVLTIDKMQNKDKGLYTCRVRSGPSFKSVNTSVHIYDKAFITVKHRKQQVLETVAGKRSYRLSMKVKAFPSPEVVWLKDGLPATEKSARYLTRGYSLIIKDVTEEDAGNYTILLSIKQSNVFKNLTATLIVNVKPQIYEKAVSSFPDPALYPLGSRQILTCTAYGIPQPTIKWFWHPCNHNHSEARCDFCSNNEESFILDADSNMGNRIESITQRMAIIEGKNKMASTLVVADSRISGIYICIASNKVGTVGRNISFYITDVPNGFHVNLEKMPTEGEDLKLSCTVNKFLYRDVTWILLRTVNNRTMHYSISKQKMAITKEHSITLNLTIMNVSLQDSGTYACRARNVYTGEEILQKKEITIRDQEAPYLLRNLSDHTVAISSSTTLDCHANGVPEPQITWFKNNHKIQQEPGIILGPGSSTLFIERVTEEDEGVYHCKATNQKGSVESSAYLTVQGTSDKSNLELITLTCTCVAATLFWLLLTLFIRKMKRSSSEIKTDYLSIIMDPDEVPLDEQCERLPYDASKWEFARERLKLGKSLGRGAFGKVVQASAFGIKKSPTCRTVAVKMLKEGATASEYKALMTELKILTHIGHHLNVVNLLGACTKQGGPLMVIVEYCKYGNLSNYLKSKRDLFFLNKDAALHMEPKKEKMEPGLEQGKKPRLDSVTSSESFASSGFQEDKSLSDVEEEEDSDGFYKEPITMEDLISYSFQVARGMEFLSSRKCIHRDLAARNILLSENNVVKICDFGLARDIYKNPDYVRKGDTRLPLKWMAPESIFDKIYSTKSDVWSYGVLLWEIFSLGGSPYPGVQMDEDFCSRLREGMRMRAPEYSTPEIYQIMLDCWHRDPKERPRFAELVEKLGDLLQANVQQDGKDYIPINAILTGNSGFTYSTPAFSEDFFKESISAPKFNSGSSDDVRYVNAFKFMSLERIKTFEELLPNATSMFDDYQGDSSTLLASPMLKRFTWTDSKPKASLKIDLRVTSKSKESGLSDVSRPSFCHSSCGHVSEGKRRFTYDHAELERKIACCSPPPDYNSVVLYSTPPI
Sequence of UniProt P12004 (whole entry, looked up): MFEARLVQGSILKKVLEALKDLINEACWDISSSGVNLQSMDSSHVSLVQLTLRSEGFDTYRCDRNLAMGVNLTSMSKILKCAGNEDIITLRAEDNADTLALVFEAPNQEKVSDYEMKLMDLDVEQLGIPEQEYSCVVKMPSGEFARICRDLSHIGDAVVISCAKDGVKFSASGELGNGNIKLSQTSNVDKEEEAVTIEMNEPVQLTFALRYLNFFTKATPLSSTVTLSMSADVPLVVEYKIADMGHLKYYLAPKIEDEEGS
Sequence of UniProt P52198 (whole entry, looked up): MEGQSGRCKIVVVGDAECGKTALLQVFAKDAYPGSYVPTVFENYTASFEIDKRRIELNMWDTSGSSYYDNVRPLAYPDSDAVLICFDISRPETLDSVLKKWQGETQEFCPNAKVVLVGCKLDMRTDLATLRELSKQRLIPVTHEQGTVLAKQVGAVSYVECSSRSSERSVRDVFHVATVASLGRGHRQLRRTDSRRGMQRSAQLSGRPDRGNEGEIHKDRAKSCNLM
Sequence of UniProt P11021 (whole entry, looked up): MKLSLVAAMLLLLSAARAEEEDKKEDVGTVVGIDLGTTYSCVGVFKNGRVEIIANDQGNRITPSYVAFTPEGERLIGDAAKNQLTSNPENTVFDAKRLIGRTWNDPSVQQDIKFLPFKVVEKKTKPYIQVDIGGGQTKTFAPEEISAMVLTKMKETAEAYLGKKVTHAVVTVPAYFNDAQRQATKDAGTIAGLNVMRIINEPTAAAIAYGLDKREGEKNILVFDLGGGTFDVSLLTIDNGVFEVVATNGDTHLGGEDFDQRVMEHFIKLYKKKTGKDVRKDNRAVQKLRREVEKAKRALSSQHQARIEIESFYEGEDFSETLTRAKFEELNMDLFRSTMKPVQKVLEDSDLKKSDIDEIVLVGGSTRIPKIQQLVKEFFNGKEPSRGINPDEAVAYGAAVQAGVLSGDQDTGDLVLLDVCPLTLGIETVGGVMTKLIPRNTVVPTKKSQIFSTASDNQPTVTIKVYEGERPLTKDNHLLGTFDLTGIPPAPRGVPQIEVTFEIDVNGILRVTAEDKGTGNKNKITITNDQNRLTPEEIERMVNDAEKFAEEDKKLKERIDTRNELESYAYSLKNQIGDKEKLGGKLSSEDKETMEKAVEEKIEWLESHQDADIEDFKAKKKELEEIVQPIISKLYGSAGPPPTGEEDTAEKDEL

`B1 (PPARG AF-1 1-136)` has a Kd of 4.08 µM and 4.44 µM (PIN1 (Homo sapiens, UniProt Q13526); NMR).
For `VEGFA (Homo sapiens, UniProt P15692)`, the Kd was 0.00018 µM (FLT1 27-758 (Homo sapiens, UniProt P17948); SPR).
With `F9 heavy and light chains, activated (UniProt P00740)` the Kd was 0.0016 µM (F8 activated, A1/A2/A3-C1-C2 D519V/E665V (Homo sapiens); FXa generation, factor Xa generation rate; added: FX).
The binding intensity of `QDEKVKESYV` is reported as 0.768 (human MAGI1-3/6 PDZ construct (MBP fusion); automated holdup; peptide, purified PDZ protein; concentration not given, unit not given; baseline: biotin control resin, higher = stronger binding).
For `FGA (Homo sapiens, UniProt P02671)`, cross-linked residues read “K620 to K176” (ULK4 (Homo sapiens, UniProt Q96C45); cross-linking MS; added: DSSO).
With `B2 (SIL1 20-421)` the Kd was 8.4 ± 1.6 µM (HSPA5 28-654 (Homo sapiens, UniProt P11021); MST).
The Kd of `KDM4A fragment (Homo sapiens)` is reported as 4 ± 1.1 µM (H4C1 around K20, K20me3, 5-FAM label; fluorescence polarisation).
For `GRGRGRGRGRGRGRGRGRGRGRGRGRGRGRGRGRGRGRGR ((GR)20 20 repeats; TAMRA label N-terminal)`, the Kd was 0.0614 ± 0.0136 µM (FUS 1-371 (Homo sapiens, UniProt P35637); fluorescence polarisation; peptide).
The MIC of `colistin` is reported as 1 mg/L (Acinetobacter baumannii; broth microdilution; clinical isolate RKI-No_377/15).
The Kd of `AATKQTARKS (H3C1 1-10 R2A)` is reported as 127 µM (T1, ATRX ADD domain 167-289 K251R/F284Y (Homo sapiens); ITC; peptide).
`PKRSFIESNV` gave a binding intensity of 0.356 (human MAGI1-3/6 PDZ construct (MBP fusion); automated holdup; peptide, crude extract; concentration not given, uncorrected, unit not given; baseline: biotin control resin, higher = stronger binding).
The Kd of `KRRQNLIRHFFHSKR (CDKN1A/RECQL5 chimeric PIP-box peptide; C-terminal amide)` is reported as greater than 40 µM (PCNA (Homo sapiens, UniProt P12004); SPR; peptide).
For `B3 (Cacna1c 1647-1777)`, the Kd was 19.2 µM (Jph2 1-440 S165Y (Mus musculus, UniProt Q9ET78); ITC).
`B4 (GAB1 331-530)` gave a Kd of 7.58 µM (GRB2 (Homo sapiens, UniProt P62993); ITC).
The Kd of `PKLPPKTYKREH (SOS1 proline-rich peptide, 1303-1314)` is reported as 660 µM (GRB2 1-58 (Homo sapiens, UniProt P62993); NMR titration; peptide).
`B5 (PLXND1 RBD 1553-1678)` gave a Kd of 6.72 ± 0.73 µM (RND2 1-227 (Homo sapiens, UniProt P52198); SPR).

Repeated from above:
`B4 (GAB1 331-530)` gave a Kd of 7.58 µM (GRB2 (Homo sapiens, UniProt P62993); ITC).
The Kd of `PKLPPKTYKREH (SOS1 proline-rich peptide, 1303-1314)` is reported as 660 µM (GRB2 1-58 (Homo sapiens, UniProt P62993); NMR titration; peptide).
